Results collected from several papers.
Lines come from different studies, so protocols differ. ± marks the error that the study gave.

SMILES = C=C1C[C@@]23CC[C@H]4[C@@](C)(CCC[C@@]4(C)C(=O)O[C@@H]4O[C@H](CO)[C@@H](O)[C@H](O)[C@H]4O)[C@@H]2CC[C@]1(O[C@@H]1O[C@H](CO[C@H]2O[C@H](CO)[C@@H](O)[C@H](O)[C@H]2O)[C@@H](O)[C@H](O)[C@H]1O[C@@H]1O[C@H](CO)[C@@H](O)[C@H](O)[C@H]1O)C3; test system = deionised water; setting = 24 h; scale = baseline: cpd over rebaudioside A; quantity = solubility ratio; value = 80 fold
SMILES = NS(=O)(=O)c1ccc(C(=O)N[C@@H]2O[C@H](CO)[C@@H](O)[C@H](O)[C@@H]2O)cc1; test system = water; quantity = solubility; value = 2%
SMILES = CC(=Nc1ccccc1)c1c(C)cc(=O)n(O)c1O; setting = pH 7.4; quantity = solubility; value = 133 µM
SMILES = Cc1ccc2c(N)c(C(=O)Nc3cccc(C(F)(F)F)c3)sc2n1; test system = anti-HIV assay medium; quantity = solubility limit; value = ≤ 1000 µM
SMILES = CCCC1OC2CC3C4CCC5=CC(=O)C=CC5(C)C4C(O)CC3(C)C2(C(=O)COC(=O)CN)O1 (stereo not drawn); test system = water; setting = 72 h; scale = baseline: budesonide; quantity = solubility fold increase; value = 180 fold
SMILES = CCCCCCCCCCCCCCCC(=O)OC[C@H]1O[C@@H](n2cc(F)c(N)nc2=O)CS1; test system = water; setting = 24 h, unit not given; scale = baseline: parent drug; quantity = solubility decrease; value = 1200
SMILES = CC(C)=CCC[C@](C)(O)[C@H]1CC[C@]2(C)[C@@H]1[C@H](O)C[C@@H]1[C@@]3(C)CC[C@H](O)C(C)(C)[C@@H]3CC[C@]12C; test system = isopropyl myristate; setting = 72 h, 25 °C; quantity = solubility; value = 2530 ± 734 µg/mL
SMILES = NS(=O)(=O)NCC(F)(F)c1ccccc1F; assay = shake-flask; test system = water; setting = pH 7.4; quantity = solubility; value = 11100 µg/mL
SMILES = COc1cc(C2C(NC(=O)c3ccc(NC(=O)OC(C)(C)C)cc3)(C(=O)O)C(c3ccc(OC(=O)c4cccs4)c(OC)c3)C2(NC(=O)c2ccc(NC(=O)OC(C)(C)C)cc2)C(=O)O)ccc1OC(=O)c1cccs1 (stereo not drawn); assay = HPLC; test system = poloxamer 188 solution; setting = unit not given; scale = baseline: with over without surfactant; quantity = solubility increase; value = ~1000
SMILES = CCCCCCCCCCCCCCCC(=O)NC[C@H](NC(=O)CNC(=O)CCNc1ccc([N+](=O)[O-])c2nonc12)C(=O)N[C@H](C(=O)N[C@@H](CCCCN)C(=O)N[C@H](C(=O)N[C@@H](CCCCN)C(=O)N[C@@H](CCCCN)C(=O)O)[C@@H](C)CC)C(C)C; test system = lymphoblast culture medium; quantity = solubility limit; value = 20 µM
SMILES = CCCC1OC2CC3C4CCC5=CC(=O)C=CC5(C)C4C(O)CC3(C)C2(C(=O)COC(=O)C(C)N)O1 (stereo not drawn); test system = water; setting = 72 h; scale = baseline: budesonide; quantity = solubility fold increase; value = 149 fold
SMILES = Cc1nc2cccc(OCC(C)(C)C(=O)NC(C)C)c2c(N)c1C(=O)[O-].[Na+]; test system = cell culture medium; setting = precipitation onset, lymphocyte; quantity = solubility limit; value = 500 µg/mL
